Results pooled from the literature.
FGFR3 isoform IIIc: FGFR3 isoform IIIc (unknown, UniProt Q61851)
Sequence of UniProt Q61851 (whole entry, looked up): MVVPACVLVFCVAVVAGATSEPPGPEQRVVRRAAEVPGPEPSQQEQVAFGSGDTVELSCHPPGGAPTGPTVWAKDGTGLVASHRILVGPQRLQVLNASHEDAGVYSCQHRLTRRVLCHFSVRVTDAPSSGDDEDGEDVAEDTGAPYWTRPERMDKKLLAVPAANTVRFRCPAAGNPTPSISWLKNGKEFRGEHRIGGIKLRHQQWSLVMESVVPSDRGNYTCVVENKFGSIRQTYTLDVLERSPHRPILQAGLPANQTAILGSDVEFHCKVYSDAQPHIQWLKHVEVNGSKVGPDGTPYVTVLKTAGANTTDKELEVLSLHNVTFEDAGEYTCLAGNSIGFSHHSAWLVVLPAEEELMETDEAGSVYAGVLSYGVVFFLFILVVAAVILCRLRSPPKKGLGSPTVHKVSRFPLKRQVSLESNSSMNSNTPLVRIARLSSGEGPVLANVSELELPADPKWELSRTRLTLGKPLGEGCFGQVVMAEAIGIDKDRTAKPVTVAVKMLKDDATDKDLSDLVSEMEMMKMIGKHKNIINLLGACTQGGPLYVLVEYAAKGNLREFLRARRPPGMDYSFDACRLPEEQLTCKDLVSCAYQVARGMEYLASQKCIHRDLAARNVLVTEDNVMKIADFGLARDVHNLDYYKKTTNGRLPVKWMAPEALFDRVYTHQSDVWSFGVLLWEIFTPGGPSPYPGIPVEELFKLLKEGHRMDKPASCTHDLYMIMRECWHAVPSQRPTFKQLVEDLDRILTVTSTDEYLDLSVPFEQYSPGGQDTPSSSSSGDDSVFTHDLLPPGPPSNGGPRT
T1: HSP90AA1 723-732 C-terminal peptide M to I, N-terminal 5-carboxyfluorescein (Homo sapiens); DDTSRIEEVD
B1: LAIR1/rat CD4 d3+4 extracellular domain 22-165 (Homo sapiens); sequence looked up; chain QEEDLPRPSISAEPGTVIPLGSHVTFVCRGPVGVQTFRLERDSRSTYNDTEDVSQASPSESEARFRIDSVREGNAGLYRCIYYKPPKWSEQSDYLELLVKESSGGPDSPDTEPGSSAGPTQRPSDNSHNEHAPASQGLKAEHLY
B2: FGF6 (Homo sapiens, UniProt P10767); chain SPAGTRANNTLLDSRGWGTLLSRSRAGLAGEIAGVNWESGYLVGIKRQRRLYCNVGIGFHLQVLPDGRISGTHEENPYSLLEISTVERGVVSLFGVRSALFVAMNSKGRLYATPSFQEECKFRETLLPNNYNAYESDLYQGTYIALSKYGRVKRGSKVSPIMTVTHFLPRI
B3: UGT1A9 (Homo sapiens, UniProt O60656); chain GKLLVVPMDGSHWFTMRSVVEKLILRGHEVVVVMPEVSWQLGRSLNCTVKTYSTSYTLEDLDREFKAFAHAQWKAQVRSIYSLLMGSYNDIFDLFFSNCRSLFKDKKLVEYLKESSFDAVFLDPFDNCGLIVAKYFSLPSVVFARGILCHYLEEGAQCPAPLSYVPRILLGFSDAMTFKERVRNHIMHLEEHLLCHRFFKNALEIASEILQTPVTEYDLYSHTSIWLLRTDFVLDYPKPVMPNMIFIGGINCHQGKPLPMEFEAYINASGEHGIVVFSLGSMVSEIPEKKAMAIADALGKIPQTVLWRYTGTRPSNLANNTILVKWLPQNDLLGHPMTRAFITHAGSHGVYESICNGVPMVMMPLFGDQMDNAKRMETKGAGVTLNVLEMTSEDLENALKAVINDKSYKENIMRLSSLHKDRPVEPLDLAVFWVEFVMRHKGAPHLRPAAHDLTWYQYHSLDVIGFLLAVVLTVAFITFKCCAYGYRKCLGKKGRVKKAHKSKTH
B4: actS 27-251 (Escherichia coli, UniProt Q46798); chain GSHMSGSKSSDTGTYSGSVYTVKRGDTLYRISRTTGTSVKELARLNGISPPYTIEVGQKLKLGGAKSSSITRKSTAKSTTKTASVTPSSAVPKSSWPPVGQRCWLWPTTGKVIMPYSTADGGNKGIDISAPRGTPIYAAGAGKVVYVGNQLRGYGNLIMIKHSEDYITAYAHNDTMLVNNGQSVKAGQKIATMGSTDAASVRLHFQIRYRATAIDPLRYLPPQGSKPKC
B5: CAND1 15-1230 (UniProt Q86VP6); N-terminal FlAsH tetracysteine tag; sequence looked up; chain MTSSDKDFRFMATNDLMTELQKDSIKLDDDSERKVVKMILKLLEDKNGEVQNLAVKCLGPLVSKVKEYQVETIVDTLCTNMLSDKEQLRDISSIGLKTVIGELPPASSGSALAANVCKKITGRLTSAIAKQEDVSVQLEALDIMADMLSRQGGLLVNFHPSILTCLLPQLTSPRLAVRKRTIIALGHLVMSCGNIVFVDLIEHLLSELSKNDSMSTTRTYIQCIAAISRQAGHRIGEYLEKIIPLVVKFCNVDDDELREYCIQAFESFVRRCPKEVYPHVSTIINICLKYLTYDPNYNYDDEDEDENAMDADGGDDDDQGSDDEYSDDDDMSWKVRRAAAKCLDAVVSTRHEMLPEFYKTVSPALISRFKEREENVKADVFHAYLSLLKQTRPVQSWLCDPDAMEQGETPLTMLQSQVPNIVKALHKQMKEKSVKTRQCCFNMLTELVNVLPGALTQHIPVLVPGIIFSLNDKSSSSNLKIDALSCLYVILCNHSPQVFHPHVQALVPPVVACVGDPFYKITSEALLVTQQLVKVIRPLDQPSSFDATPYIKDLFTCTIKRLKAADIDQEVKERAISCMGQIICNLGDNLGSDLPNTLQIFLERLKNEITRLTTVKALTLIAGSPLKIDLRPVLGEGVPILASFLRKNQRALKLGTLSALDILIKNYSDSLTAAMIDAVLDELPPLISESDMHVSQMAISFLTTLAKVYPSSLSKISGSILNELIGLVRSPLLQGGALSAMLDFFQALVVTGTNNLGYMDLLRMLTGPVYSQSTALTHKQSYYSIAKCVAALTRACPKEGPAVVGQFIQDVKNSRSTDSIRLLALLSLGEVGHHIDLSGQLELKSVILEAFSSPSEEVKSAASYALGSISVGNLPEYLPFVLQEITSQPKRQYLLLHSLKEIISSASVVGLKPYVENIWALLLKHCECAEEGTRNVVAECLGKLTLIDPETLLPRLKGYLISGSSYARSSVVTAVKFTISDHPQPIDPLLKNCIGDFLKTLEDPDLNVRRVALVTFNSAAHNKPSLIRDLLDTVLPHLYNETKVRKELIREVEMGPFKHTVDDGLDIRKAAFECMYTLLDSCLDRLDIFEFLNHVEDGLKDHYDIKMLTFLMLVRLSTLCPSAVLQRLDRLVEPLRATCTTKVKANSVKQEFEKQDELKRSAMRAVAALLTIPEAEKSPLMSEFQSQISSNPELAAIFESIQKDSSSTNLESMDTS
B6: mel-26 (Caenorhabditis elegans, UniProt Q94420); sequence looked up; chain MEPRIDGGVFIGGIGNSGNEMCSNGVPALGVSSQTEIKVEKVQHTWTVKNFSHCYQEYLENFVYLQRGDEQLTWSIKIYPKGNGENNKDFVFLCLNRVINNNVKAGKIGFKSQFKLRTAENKDIEMRIHPNPSHSDYVSYIKRDVLFPQIMPRDMIIVNVEIDVAVETITTTNEPIQFEPTNSEQQLIEDYQRLFSQELLCDFAINVNGKIIRAHKAVLAARSPVFNAMLTHQDTDEAKSSMMYINDMDYDVIYEMVYYIYCGRCNKDITDMATALLIAADKYRLEELKSHCEKYLVENINIENACSLLIIGDLYSAPKLRKRAVTYILARPKNVTGTPGWEDILKGHPNLITDIFSQIDRQSSTGATSSVSNLPGVPMDIPGITGNIVPPPSGL
B7: DNAJC7 (Homo sapiens, UniProt Q99615); sequence looked up; chain MAAAAECDVVMAATEPELLDDQEAKREAETFKEQGNAYYAKKDYNEAYNYYTKAIDMCPKNASYYGNRAATLMMLGRFREALGDAQQSVRLDDSFVRGHLREGKCHLSLGNAMAACRSFQRALELDHKNAQAQQEFKNANAVMEYEKIAETDFEKRDFRKVVFCMDRALEFAPACHRFKILKAECLAMLGRYPEAQSVASDILRMDSTNADALYVRGLCLYYEDCIEKAVQFFVQALRMAPDHEKACIACRNAKALKAKKEDGNKAFKEGNYKLAYELYTEALGIDPNNIKTNAKLYCNRGTVNSKLRKLDDAIEDCTNAVKLDDTYIKAYLRRAQCYMDTEQYEEAVRDYEKVYQTEKTKEHKQLLKNAQLELKKSKRKDYYKILGVDKNASEDEIKKAYRKRALMHHPDRHSGASAEVQKEEEKKFKEVGEAFTILSDPKKKTRYDSGQDLDEEGMNMGDFDPNNIFKAFFGGPGGFSFEASGPGNFFFQFG
Sequence of UniProt Q9LX31 (whole entry, looked up): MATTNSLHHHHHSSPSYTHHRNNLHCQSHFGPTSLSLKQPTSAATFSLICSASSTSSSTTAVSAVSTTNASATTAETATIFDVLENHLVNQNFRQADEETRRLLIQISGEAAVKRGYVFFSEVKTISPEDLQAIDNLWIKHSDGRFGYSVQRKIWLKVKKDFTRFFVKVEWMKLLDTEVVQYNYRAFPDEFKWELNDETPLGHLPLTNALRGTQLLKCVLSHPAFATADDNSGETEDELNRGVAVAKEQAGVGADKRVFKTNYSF
Sequence of UniProt P0A6A8 (whole entry, looked up): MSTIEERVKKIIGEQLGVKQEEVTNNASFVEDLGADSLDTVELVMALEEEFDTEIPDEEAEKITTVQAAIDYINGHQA
Sequence of UniProt P70618 (whole entry, looked up): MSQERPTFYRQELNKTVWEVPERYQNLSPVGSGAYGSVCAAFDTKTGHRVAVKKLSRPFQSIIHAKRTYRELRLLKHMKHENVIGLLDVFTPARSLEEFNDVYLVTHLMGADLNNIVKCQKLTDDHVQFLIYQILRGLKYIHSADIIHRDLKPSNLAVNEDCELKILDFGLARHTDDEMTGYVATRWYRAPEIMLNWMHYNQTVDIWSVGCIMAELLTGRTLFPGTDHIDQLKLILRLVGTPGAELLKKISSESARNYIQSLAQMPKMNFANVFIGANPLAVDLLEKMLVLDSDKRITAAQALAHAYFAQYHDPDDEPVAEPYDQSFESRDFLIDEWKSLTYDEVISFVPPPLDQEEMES
Sequence of UniProt P55075 (whole entry, looked up): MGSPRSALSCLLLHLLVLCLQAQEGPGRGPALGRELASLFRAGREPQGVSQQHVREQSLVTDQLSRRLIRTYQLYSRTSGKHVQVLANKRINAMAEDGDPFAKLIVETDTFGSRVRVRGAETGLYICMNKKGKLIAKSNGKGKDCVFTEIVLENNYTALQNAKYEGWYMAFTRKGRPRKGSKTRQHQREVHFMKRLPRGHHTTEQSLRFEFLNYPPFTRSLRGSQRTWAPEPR
Sequence of UniProt P39730 (whole entry, unmodified, looked up): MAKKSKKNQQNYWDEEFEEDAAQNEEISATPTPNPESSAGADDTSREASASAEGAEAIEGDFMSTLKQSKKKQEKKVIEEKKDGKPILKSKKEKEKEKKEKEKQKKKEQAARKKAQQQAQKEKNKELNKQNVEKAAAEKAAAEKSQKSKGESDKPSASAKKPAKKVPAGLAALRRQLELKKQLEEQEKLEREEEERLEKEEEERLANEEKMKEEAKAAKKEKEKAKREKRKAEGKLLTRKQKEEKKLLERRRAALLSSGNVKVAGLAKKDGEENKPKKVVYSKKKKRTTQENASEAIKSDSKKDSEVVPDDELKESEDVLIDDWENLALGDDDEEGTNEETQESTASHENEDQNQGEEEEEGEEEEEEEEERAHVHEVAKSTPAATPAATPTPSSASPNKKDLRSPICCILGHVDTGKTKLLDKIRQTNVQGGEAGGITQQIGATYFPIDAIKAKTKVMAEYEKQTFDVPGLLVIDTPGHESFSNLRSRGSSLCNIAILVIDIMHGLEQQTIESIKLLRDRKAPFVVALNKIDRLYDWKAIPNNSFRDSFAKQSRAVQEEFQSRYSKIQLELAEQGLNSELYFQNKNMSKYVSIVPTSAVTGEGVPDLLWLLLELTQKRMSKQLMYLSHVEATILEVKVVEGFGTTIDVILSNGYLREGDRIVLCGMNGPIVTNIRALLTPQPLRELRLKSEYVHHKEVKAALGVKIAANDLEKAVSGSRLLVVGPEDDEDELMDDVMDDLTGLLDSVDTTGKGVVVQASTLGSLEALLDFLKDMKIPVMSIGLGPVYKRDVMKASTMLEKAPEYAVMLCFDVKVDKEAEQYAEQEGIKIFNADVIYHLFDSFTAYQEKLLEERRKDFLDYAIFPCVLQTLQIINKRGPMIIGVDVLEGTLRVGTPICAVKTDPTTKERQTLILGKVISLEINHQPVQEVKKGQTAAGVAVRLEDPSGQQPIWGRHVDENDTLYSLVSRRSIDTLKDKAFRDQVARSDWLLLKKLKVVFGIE
Sequence of UniProt P26365 (whole entry, looked up): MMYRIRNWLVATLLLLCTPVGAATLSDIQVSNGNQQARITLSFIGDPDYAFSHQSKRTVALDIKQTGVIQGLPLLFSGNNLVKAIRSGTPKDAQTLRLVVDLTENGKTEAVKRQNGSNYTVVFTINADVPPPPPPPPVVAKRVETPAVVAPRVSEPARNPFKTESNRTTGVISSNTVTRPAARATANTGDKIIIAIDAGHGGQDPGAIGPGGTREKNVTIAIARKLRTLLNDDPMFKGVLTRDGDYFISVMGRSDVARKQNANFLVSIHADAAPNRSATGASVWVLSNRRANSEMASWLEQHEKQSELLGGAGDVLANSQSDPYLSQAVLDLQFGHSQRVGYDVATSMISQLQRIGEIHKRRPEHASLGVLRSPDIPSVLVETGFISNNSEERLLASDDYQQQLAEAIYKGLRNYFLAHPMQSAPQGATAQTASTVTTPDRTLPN
Sequence of UniProt P31266 (whole entry, unmodified, looked up): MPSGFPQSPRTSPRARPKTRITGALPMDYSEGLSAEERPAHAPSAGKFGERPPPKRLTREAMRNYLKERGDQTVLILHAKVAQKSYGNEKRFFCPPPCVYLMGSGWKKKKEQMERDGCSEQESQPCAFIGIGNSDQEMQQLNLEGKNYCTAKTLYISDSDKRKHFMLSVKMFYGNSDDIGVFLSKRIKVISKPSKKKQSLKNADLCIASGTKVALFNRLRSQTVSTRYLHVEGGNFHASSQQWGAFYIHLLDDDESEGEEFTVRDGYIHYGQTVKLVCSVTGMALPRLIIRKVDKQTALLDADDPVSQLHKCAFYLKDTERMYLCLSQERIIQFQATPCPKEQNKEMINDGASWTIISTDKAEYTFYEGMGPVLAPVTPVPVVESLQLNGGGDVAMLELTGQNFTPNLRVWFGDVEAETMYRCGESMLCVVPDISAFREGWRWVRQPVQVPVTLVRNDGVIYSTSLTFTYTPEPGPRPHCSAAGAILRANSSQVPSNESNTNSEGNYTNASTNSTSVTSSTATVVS

B1 — response (LILRB4/rat CD4 d3+4 extracellular domain 24-238 (Mus musculus); SPR; multivalent bead assay): 2500 RU
B2 (FGF6) — cell proliferation (FGFR3 isoform IIIc; cell proliferation, MTT; BaF3-FGFR3c; 20 nM, 48 h, added: 2-O desulfated heparin 4.9 µg/mL; reference: FGF 1 with heparin, higher = more proliferation): 26%
B3 (UGT1A9) — Vmax (O=c1c(O)c(-c2cccc(O)c2)oc2ccccc12; steady-state kinetics; pH 7.4, 37 °C): 0.0031 µmol/min/mg
Pcsk9 fragment (Mus musculus) — bound PCSK9 (Ldlr (Mus musculus, UniProt P35951); ELISA; plasma; CFA group): 37.4 ng/mL
fabF R206A (Escherichia coli) — condensation rate (acpP C12-acylated 1-78, C12 acyl on 4'-phosphopantetheine (Escherichia coli, UniProt P0A6A8); holo-AcpP formation, HPLC; 10 µM, added: malonyl-CoA): 0.41 min⁻¹
MENVKKRTATTTWMVPTAQ (L3MBTL3 52-70 A58R (Homo sapiens, UniProt Q96JM7-2); sequence looked up) — ΔH (Rbpj 53-474 (Mus musculus, UniProt P31266); ITC; peptide; pH 6.5, 25 °C, NaCl 150 mM): -58.6 kJ/mol
B4 (actS 27-251) — relative stimulation of amidase activity (amiB (Escherichia coli, UniProt P26365); amidase activity on sacculi; 2 µM, pH 5.2; reference: stimulation by EnvC, higher = stronger stimulation): 5 fold
TIF11 fragment (Saccharomyces cerevisiae) — rate constant (FUN12 396-1002 (Saccharomyces cerevisiae, UniProt P39730); subunit joining, stopped-flow light scattering): 0.013 s⁻¹
TFPI endogenous, on cells (Homo sapiens, UniProt P10646) — free factor Xa (F10 factor Xa; factor Xa inhibition; HUVEC; 100 µg/mL total protein, final, methyl-β-cyclodextrin): 0.046 nM
cpSRP43 mature full length (Arabidopsis thaliana, UniProt O22265) — apparent solubilization constant (GUN4 mature (UniProt Q9LX31); suppression of heat-induced aggregation, light scattering; 5 µM, 5 min, 44 °C, apparent): 0.15 µM
MMP2 fragment R252A/F297A/R368A (Homo sapiens) — hydrolysis rate (COL1A1/COL1A2 denatured, gelatin (Homo sapiens); DQ-gelatin fluorescence; 10 nM, 25 °C; higher = faster hydrolysis): 0.029 RFU/s
B5 (CAND1 15-1230) — koff (CUL1/RBX1/SKP1/SKP2, C-terminal AMC; FRET): 67 s⁻¹
B6 (mel-26) — binding (mei-1 S137A, phosphorylated by MBK-2 (Caenorhabditis elegans, UniProt P34808); far-Western; 4 °C, denatured): binds
FGF8 (Homo sapiens, UniProt P55075) — cell proliferation (FGFR3 isoform IIIc; cell proliferation, MTT; BaF3-FGFR3c; 20 nM, 48 h, added: 2-O desulfated heparin 4.9 µg/mL; reference: FGF 1 with heparin, higher = more proliferation): 127%
B7 (DNAJC7) — affinity change (T1, HSP90AA1 723-732 C-terminal peptide M to I, N-terminal 5-carboxyfluorescein (Homo sapiens); fluorescence polarisation; DnaJC7, mutant tracer, added: 5-Fam peptide tracer 20 nM; reference: wt Hsp90α tracer, higher = stronger binding): > 2 fold
FGF8b (Homo sapiens) — cell proliferation (FGFR3 isoform IIIc; cell proliferation, MTT; BaF3-FGFR3c; 20 nM, 48 h, added: heparin 4.9 µg/mL; reference: FGF 1 with heparin, higher = more proliferation): 105%
YASKGKKRNPGLKIPK (MAP2K6 residues 4-17 (Homo sapiens)) — IC50 (Mapk14, pT180, pY182 (Rattus norvegicus, UniProt P70618); kinase activity, inhibitor, competitive kinase inhibition assay; peptide; added: ATP 1 mM): 16 µM

Excerpt of the above:
fabF R206A (Escherichia coli) — condensation rate (acpP C12-acylated 1-78, C12 acyl on 4'-phosphopantetheine (Escherichia coli, UniProt P0A6A8); holo-AcpP formation, HPLC; 10 µM, added: malonyl-CoA): 0.41 min⁻¹
FGF8b (Homo sapiens) — cell proliferation (FGFR3 isoform IIIc; cell proliferation, MTT; BaF3-FGFR3c; 20 nM, 48 h, added: heparin 4.9 µg/mL; reference: FGF 1 with heparin, higher = more proliferation): 105%
